Experimental data gathered from unrelated publications.
Protocols differ between the studies behind these lines.
RAP1/Yku70/Yku80: RAP1/Yku70/Yku80 (Saccharomyces cerevisiae)
lacI full length assumed: lacI full length assumed (Escherichia coli, UniProt P03023)
UniProt P03023, sequence (whole entry, looked up): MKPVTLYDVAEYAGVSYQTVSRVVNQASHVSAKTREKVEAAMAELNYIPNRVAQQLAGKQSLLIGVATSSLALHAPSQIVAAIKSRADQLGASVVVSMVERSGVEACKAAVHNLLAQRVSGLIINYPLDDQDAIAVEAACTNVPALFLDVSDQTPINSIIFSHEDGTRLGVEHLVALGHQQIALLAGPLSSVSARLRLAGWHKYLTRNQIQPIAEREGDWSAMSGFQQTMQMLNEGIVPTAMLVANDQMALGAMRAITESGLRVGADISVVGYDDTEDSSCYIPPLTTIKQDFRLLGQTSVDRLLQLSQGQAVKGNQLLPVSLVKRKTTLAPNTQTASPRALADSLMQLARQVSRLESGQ
Rc3h1: Rc3h1 411-454 (Mus musculus, UniProt Q4VGL6)
UniProt Q4VGL6, sequence (whole entry, looked up): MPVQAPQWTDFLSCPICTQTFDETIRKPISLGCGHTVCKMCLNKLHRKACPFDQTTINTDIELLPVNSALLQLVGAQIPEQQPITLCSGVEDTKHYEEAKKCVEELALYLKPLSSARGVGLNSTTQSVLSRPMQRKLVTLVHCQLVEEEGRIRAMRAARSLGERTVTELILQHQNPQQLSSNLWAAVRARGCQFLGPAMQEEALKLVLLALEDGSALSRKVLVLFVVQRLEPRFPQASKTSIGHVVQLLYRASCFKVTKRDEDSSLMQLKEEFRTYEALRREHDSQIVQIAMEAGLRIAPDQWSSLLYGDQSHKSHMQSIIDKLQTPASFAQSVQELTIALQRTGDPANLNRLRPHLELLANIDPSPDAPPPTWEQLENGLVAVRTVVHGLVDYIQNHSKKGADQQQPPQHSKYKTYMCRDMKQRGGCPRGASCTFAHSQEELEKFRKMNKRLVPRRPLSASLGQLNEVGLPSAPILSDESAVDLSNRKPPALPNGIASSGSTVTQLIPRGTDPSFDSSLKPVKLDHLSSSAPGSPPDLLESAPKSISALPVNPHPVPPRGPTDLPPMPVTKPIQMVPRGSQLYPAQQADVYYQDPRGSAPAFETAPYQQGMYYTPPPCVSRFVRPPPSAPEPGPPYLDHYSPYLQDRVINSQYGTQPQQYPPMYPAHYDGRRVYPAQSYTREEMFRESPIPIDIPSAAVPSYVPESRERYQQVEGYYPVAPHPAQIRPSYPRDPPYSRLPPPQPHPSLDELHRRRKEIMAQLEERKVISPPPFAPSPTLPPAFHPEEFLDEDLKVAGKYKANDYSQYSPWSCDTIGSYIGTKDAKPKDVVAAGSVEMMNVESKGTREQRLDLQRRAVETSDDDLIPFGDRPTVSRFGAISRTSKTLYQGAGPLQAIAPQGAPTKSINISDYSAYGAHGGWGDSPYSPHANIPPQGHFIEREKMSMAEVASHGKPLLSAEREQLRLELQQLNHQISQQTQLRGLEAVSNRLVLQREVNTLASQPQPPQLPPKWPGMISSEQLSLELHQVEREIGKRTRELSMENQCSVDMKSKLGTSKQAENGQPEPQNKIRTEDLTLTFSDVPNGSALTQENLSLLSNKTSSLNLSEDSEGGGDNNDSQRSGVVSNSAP
LHY full length assumed: LHY full length assumed (Arabidopsis thaliana, UniProt Q6R0H1)
UniProt Q6R0H1, sequence (whole entry, looked up): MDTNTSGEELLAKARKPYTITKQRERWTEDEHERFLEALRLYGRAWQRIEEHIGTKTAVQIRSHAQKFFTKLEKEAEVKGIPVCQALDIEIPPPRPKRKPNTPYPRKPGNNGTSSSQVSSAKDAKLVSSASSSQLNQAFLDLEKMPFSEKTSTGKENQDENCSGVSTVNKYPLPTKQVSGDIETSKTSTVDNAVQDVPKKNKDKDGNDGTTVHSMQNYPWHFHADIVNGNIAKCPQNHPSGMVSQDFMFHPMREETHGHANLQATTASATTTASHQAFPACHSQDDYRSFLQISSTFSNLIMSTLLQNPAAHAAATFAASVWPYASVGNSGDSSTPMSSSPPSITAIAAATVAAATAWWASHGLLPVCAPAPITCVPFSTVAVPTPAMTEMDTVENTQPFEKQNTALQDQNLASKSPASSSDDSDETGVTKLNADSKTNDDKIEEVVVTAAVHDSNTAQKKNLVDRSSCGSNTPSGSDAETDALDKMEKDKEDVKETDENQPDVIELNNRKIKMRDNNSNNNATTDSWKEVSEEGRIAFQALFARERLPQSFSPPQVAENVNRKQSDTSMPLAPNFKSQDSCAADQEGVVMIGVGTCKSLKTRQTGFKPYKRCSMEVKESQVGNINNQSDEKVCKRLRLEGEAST
tnsD: tnsD 1-318 (Escherichia coli, UniProt P13991)
UniProt Q9SM50, sequence (whole entry, looked up): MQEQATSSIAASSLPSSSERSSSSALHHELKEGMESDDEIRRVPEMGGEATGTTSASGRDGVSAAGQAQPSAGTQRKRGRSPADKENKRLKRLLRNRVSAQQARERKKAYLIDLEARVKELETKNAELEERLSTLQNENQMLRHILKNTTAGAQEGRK
UniProt P13991, sequence (whole entry, looked up): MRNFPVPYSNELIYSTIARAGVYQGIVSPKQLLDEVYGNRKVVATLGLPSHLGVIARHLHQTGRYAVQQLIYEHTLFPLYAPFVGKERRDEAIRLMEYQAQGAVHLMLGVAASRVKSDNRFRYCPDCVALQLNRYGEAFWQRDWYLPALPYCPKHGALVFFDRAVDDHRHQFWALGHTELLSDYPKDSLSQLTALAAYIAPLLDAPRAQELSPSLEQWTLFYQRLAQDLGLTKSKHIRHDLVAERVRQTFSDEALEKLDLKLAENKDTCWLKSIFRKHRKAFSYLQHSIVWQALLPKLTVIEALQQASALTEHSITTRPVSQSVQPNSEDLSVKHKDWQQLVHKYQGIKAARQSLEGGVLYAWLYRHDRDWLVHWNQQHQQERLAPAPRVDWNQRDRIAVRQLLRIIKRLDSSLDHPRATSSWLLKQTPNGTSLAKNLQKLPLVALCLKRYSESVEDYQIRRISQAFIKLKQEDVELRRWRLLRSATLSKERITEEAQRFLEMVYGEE
UniProt Q08211, sequence (whole entry, looked up): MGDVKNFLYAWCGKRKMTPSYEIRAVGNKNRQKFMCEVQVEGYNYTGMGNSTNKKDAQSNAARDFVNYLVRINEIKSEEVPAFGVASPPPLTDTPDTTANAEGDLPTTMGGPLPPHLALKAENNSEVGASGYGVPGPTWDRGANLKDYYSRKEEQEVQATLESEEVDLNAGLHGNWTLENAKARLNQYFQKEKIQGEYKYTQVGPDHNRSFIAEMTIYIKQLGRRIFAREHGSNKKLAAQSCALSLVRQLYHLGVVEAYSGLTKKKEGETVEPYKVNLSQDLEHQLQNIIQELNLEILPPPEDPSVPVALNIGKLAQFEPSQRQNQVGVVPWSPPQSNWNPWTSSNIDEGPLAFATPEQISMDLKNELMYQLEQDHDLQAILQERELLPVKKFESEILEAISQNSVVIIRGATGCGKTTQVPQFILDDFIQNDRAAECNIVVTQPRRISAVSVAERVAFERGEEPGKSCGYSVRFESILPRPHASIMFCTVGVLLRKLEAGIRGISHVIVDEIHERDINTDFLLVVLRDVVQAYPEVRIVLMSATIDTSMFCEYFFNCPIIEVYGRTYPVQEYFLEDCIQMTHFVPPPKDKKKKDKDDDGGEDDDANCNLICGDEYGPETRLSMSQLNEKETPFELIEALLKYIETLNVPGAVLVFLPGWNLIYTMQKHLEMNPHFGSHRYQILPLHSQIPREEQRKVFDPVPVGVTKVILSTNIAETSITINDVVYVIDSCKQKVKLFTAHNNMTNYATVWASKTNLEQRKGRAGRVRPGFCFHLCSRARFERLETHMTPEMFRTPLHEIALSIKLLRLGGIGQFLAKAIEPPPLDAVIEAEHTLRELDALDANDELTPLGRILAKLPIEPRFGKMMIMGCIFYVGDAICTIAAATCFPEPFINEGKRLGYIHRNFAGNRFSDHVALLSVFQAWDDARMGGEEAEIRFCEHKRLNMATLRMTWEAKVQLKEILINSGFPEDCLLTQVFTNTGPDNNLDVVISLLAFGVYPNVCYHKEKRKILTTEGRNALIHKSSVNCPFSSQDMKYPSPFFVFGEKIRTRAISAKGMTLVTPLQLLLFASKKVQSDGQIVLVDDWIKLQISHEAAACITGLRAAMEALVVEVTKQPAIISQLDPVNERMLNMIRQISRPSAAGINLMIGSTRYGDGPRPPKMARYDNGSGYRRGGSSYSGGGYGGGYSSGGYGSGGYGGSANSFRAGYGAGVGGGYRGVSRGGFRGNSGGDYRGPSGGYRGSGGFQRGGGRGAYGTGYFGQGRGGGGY
UniProt Q5T3I0, sequence (whole entry, looked up): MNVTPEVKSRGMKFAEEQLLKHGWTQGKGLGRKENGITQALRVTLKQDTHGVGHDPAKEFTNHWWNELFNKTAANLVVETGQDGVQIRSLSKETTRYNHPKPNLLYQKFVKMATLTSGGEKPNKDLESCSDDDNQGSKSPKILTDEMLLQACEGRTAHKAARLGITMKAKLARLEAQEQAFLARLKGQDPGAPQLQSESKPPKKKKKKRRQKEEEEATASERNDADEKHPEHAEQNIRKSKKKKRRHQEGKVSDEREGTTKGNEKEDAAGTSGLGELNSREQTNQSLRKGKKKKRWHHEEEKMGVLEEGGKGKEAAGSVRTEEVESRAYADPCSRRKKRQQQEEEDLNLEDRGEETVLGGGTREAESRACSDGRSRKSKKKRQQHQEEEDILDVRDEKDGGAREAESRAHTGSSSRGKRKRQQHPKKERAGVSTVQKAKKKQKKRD
UniProt P57741, sequence (whole entry, looked up): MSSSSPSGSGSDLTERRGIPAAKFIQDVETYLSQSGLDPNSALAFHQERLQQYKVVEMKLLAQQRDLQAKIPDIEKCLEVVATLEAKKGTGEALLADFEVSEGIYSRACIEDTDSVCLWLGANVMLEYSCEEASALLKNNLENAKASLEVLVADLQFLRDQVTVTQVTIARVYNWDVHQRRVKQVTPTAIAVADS
UniProt P01375, sequence (whole entry, looked up): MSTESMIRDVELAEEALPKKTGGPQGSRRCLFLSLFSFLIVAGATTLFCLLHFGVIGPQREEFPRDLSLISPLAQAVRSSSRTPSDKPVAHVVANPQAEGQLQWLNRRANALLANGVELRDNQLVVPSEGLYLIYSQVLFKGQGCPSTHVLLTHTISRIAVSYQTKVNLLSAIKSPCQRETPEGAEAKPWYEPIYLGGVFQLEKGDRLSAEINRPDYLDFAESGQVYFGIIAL

Substance	tested on	assay	system	setting	endpoint	value
AGCAAAAGTAATTTTTTTTAGAAAAGAAAAGAGTTAAAGA (dsDNA)	NAC domain-containing protein full length assumed (Musa acuminata, UniProt A0A804JLK1)	EMSA	double-stranded DNA, one strand shown		binding	binds
GTGTTCGGACTCTGCCTCAAGACGGTAGTCAACGTGCTTG (dsDNA)	XRS2 1-325 K54E (Saccharomyces cerevisiae, UniProt P33301)	EMSA	double-stranded DNA, one strand shown	near wild-type	binding	binds
CTTCTTTATTTTATTGTCTGAACGAATAAAAATCCATTATCT (dsDNA)	Transcription factor RF2b full length assumed (Ziziphus jujuba, UniProt A0A6P3ZIC3)	EMSA	double-stranded DNA, one strand shown		binding	no binding
GGACGGAAAGACCCCGUGG (ssRNA)	AGER 23-342 (Homo sapiens, UniProt Q15109)	EMSA	RNA		binding	binds
GCAGGAGAAACACGTGTTGCCACTTT (dsDNA)	HY5 1-158 (Solanum lycopersicum, UniProt Q9SM50)	EMSA	double-stranded DNA, one strand shown		binding	binds
GTGGTGTGTGGGTGTGTGTGT (dsDNA)	RAP1/Yku70/Yku80	cryo-EM	double-stranded DNA, one strand shown		binding	binds
TGCCATAGAATCTCGACTATCGCAAAT (ssDNA)	gene 32 protein 1-301 (bacteriophage T4, UniProt P03695)	EMSA	single-stranded DNA	10 mM, together with: Mg2+	binding	binds
CTCAATTCTGTCCTATTTCTTGTATATAAAACTTCTCCATCTTGTAATCG (dsDNA)	VAL1 289-396 (Arabidopsis thaliana, UniProt Q8W4L5)	EMSA	double-stranded DNA, one strand shown		binding	no binding
ATACATGCAAACGTTCTTTTAAAA (dsDNA)	HY5 full length assumed (Solanum lycopersicum, UniProt Q9SM50)	EMSA	double-stranded DNA, one strand shown		binding	binds
GTGTGGTTAATATGGTGTGGTTAATATGGTGTGGTTAATATGGTGTGGTTAATATG (dsDNA)	RNJ 604-911 W873A (Arabidopsis thaliana, UniProt Q84W56)	EMSA	double-stranded DNA, one strand shown		binding	no binding
AAACGCCAGACACACGCGCGAAAAGAAGCGCG (dsDNA)	PFD3 1-195 (Arabidopsis thaliana, UniProt P57741)	EMSA	double-stranded DNA, one strand shown		binding	no binding
AATTAGTCGCCACGTGTTTTACTTTA (dsDNA)	HY5/CaM2 1-158; 1-149 (Solanum lycopersicum)	EMSA	double-stranded DNA, one strand shown	together with: CaCl2 5 mM	binding	binds
AAGGTGTGTGGGTGTGGTAA (dsDNA)	RAP1/Yku70/Yku80	EMSA	double-stranded DNA, one strand shown		binding	binds
CTTTGCCAAAG (dsDNA)	Transcriptional regulator (NtrC family) 392-439 (Aquifex aeolicus, UniProt O67198)	EMSA	double-stranded DNA, one strand shown		binding	no binding
CATCGCATTGAACAAAACTTGAACCGATTTAGCAAAACGTGGCATCGGTCAATTCATTCATTTGACTTATACTTGCCTGGGCAATATTATCCCCTGCAAC (dsDNA)	marR residues 1-144 C47S/C51S/C54S/C108S/C111S (Escherichia coli, UniProt P27245)	EMSA	double-stranded DNA, one strand shown		binding	binds
GCATATGGCAGCTTGAACAGTGAGCGCAACGCAATTTTGCAGCGA (dsDNA)	lacI full length assumed	BLI	double-stranded DNA, one strand shown		binding	binds
TGGTTGTTTGTTTGCCGTTGGAGGTCTTTGTGTTGGATG (ssDNA; 5'-phosphate)	MMP9 20-707 (Homo sapiens, UniProt P14780)	ELASA	single-stranded DNA		binding	no binding
TTTTTTTT (ssDNA)	Rc3h1	NMR	single-stranded DNA		binding	binds
ATAAGTCACATGATGATATTTGATTTTATTATATTTTTAAAAAAAGTAAAAAATAAAAAGTAGTTTATTTTTAAAAAATAAAATTTAAAATATTTCACAAAATGATTTCCGAA (dsDNA)	CENP-I 1-683 (Thermochaetoides thermophila, UniProt G0SFF7)	EMSA	double-stranded DNA, one strand shown		binding	binds
CATAATGTAATATATAATAATCATATAGTAATATAATTTTCATTC (dsDNA)	gbp (Glycine max, UniProt Q8LKV1)	EMSA	double-stranded DNA, one strand shown		binding	no binding
GAAAATTTAAGGCGTTAAAAAATAAGGTTTAGAGTGGGTCGGATAAAAATTTGAAAATAGATAT (dsDNA)	Auxin-responsive protein 1-232 (Prunus persica, UniProt M5VWY4)	EMSA	double-stranded DNA, one strand shown		binding	no binding
CTCATTACACAGTCTTAGTCACATCGGTGAAAATATCAATTAATATTCCCCAGAAAGTTG (dsDNA)	LHY full length assumed	EMSA	double-stranded DNA, one strand shown		binding	binds
GGCGGCGGCATTGTCCGGCGCGCGG (dsDNA)	Sox17 66-144 (Mus musculus, UniProt Q61473)	EMSA	double-stranded DNA, one strand shown		binding	binds
CAGCCAACTAAACTA (dsDNA)	tnsD	EMSA	double-stranded DNA, one strand shown		binding	no binding
GGTGGTGGTGGTGGTGGT (ssDNA)	recA full length assumed F204Q (Escherichia coli, UniProt P0A7G6)	fluorescence anisotropy	single-stranded DNA	together with: ATPγS	binding	binds
CGGGTTTCATGTACGTTTTCCGCTAGTTGGCGCGCGTGAACCCGCCGTTCGGGAAATTGCGT (dsDNA; blunt)	rcoM2 full length assumed (Paraburkholderia xenovorans, UniProt Q13IY4)	fluorescence anisotropy	double-stranded DNA, one strand shown	Fe(II)-CO	binding	binds

Substance	tested on	assay	system	setting	endpoint	value
GGTTAGGGTTAG (ssDNA; 5'-phosphate)	POT1 1-299 R83A (Homo sapiens, UniProt Q9NUX5)	EMSA	single-stranded DNA		binding	binds
ACCAAGCGGGATGCGGTGCCGCCGCCGCCGCCG (dsDNA; blunt)	WT1 zinc finger domain 323-435 (Homo sapiens)	EMSA	double-stranded DNA, one strand shown		binding	no binding
TTTTTTTTTTTTTTTTTTTTTTTTTT (ssDNA; single-stranded)	PARP2 full length, 1-570 (Homo sapiens)	EMSA	single-stranded DNA		binding	no binding
TGGTGGATGGCGCAGTCGGCGACAA (ssDNA; 5'-amine, G-quadruplex)	TNF 77-233 (Homo sapiens, UniProt P01375)	field-effect transistor	single-stranded DNA	LOD, Hill-Langmuir fit	binding	binds
ATACTAACAATCAGAACCCGGATTAATCGAAAGCTT (dsDNA)	tnsD	EMSA	double-stranded DNA, one strand shown		binding	binds
TCTCCTTTTTGTTTGACAGTGATCCAAAAA (dsDNA)	WRKY domain-containing protein 1-253 (Triticum aestivum, UniProt A0A3B5Y6J9)	EMSA	double-stranded DNA, one strand shown		binding	binds
GAACAUAGAAAGAGAGAGAUAUAAA (ssRNA; m6A position 3)	ECT2 full length assumed W521A (Arabidopsis thaliana, UniProt Q9LJE5)	EMSA	RNA		binding	no binding
AGAGAGAGAG (ssRNA)	EIF4A1 19-406 (Homo sapiens, UniProt P60842)	X-ray crystallography	RNA	together with: AMPPNP, silvestrol	binding	binds
CGCGCG (dsDNA; blunt self-complementary duplex)	ADAR 133-199 (Homo sapiens, UniProt P55265)	CD	double-stranded DNA, one strand shown		binding	binds
TTTATTTT (ssDNA)	Rc3h1	NMR	single-stranded DNA		binding	binds
AAACCGCTCTCCCATATGCGACGCGCG (dsDNA)	Opaque endosperm 11 1-624 (Zea mays, UniProt A0A1D6EAS7)	EMSA	double-stranded DNA, one strand shown	together with: Mg2+	binding	no binding
AACAGAAUGGGACUGUUC (ssRNA)	NCL 300-650 (Homo sapiens, UniProt P19338)	pull-down competition, competition	RNA		binding	binds
CCAATCAATAGCTGAAAACTGCGCAGGAGA (dsDNA)	ERF-D2 full length assumed (Solanum lycopersicum, UniProt A0A3Q7JX06)	EMSA	double-stranded DNA, one strand shown	mutant probe	binding	no binding
AAGGTGTGTGGGTGTGGTAATC (dsDNA)	RAP1/Yku70/Yku80	mass photometry	double-stranded DNA, one strand shown		binding	binds
TTTTTTTTTTTTTTTTTTTTTTTTTTTTTTTTTTTTTTTTTTTTTTTTTTTTTTTTTTTTTTTTTTTTTT (ssDNA)	RAD51 full length assumed Y112E (Saccharomyces cerevisiae, UniProt P25454)	fluorescence anisotropy	single-stranded DNA	together with: ATP	binding	no binding
ACCAAGCGGGATGCGGAGCCGCCGCCGCCGTCG (dsDNA; blunt)	WT1 zinc finger domain 323-435 (Homo sapiens)	EMSA	double-stranded DNA, one strand shown		binding	no binding
TAATTTTAAACAAAATATTAACAATTAAAATATCACCCTTGTGAATAATATTTAAAACTT (dsDNA)	LHY full length assumed	EMSA	double-stranded DNA, one strand shown		binding	binds
GCCAAUUUCGCCGGCGUACGGCCACGAUCGGGAGGGUGGGAAUCUCGGGGGUCUUCCGAUCCUAAUCCAUGAUGAUUACGACCUGAGUCACUAAAGACGAUGGCAUGAUGAUCCGGCGAUGAAAAA (RNA (Bombyx mori); single stem-loop)	Reverse transcriptase-like protein 275-1114 R310A/R311A/Q318A/D996A (Bombyx mori, UniProt V9H052)	EMSA	folded RNA		binding	binds
TGTTGTGTGGAATTGTGAGCGGATAACAATTTCACACAGG (dsDNA (Escherichia coli); blunt)	lacI full length assumed	filter binding	double-stranded DNA, one strand shown	no effector	binding	binds
DNA 1 CCAGGAGCAAGGCCGGAAACGTCACCAATGCAACGATCAGCCAACTAAACTAGGACATCT / DNA 2 AGATGTCCTAGTTTAGTTGGCTGATCGTTG (dsDNA; 5' 30 nt overhang; 3'-recessed)	tnsE 1-538 (Escherichia coli, UniProt P05845)	native MS	double-stranded DNA		binding	binds
GCGCGCGCGC (dsRNA; blunt ends)	DHX9 1-91 (Homo sapiens, UniProt Q08211)	EMSA	double-stranded RNA, one strand shown		binding	binds
ACCAAGCGGGTTGCGGAGCCGCCGCCGCCGCCG (dsDNA; blunt)	WT1 zinc finger domain 323-435 (Homo sapiens)	EMSA	double-stranded DNA, one strand shown		binding	no binding
GGGCGAAUUCUGCUCCAUGUGUGCACCUACUGCUCCAUGUGUGCACCUACUGCUCCAUGUGUGCACCUACA (ssRNA)	GPATCH4 full length assumed (Homo sapiens, UniProt Q5T3I0)	pull-down	RNA	radiolabelled RNA, denaturing PAGE readout	binding	no binding
TTGATAAGAGGTCATTTTTGCGGATGGCTTAGAGCTTAATTGCTGAATCTGGTGCTGTAGCTCAACATGTTTTAA (ssDNA)	MGM101 23-269 (Saccharomyces cerevisiae, UniProt P32787)	native MS	single-stranded DNA		binding	binds
GGCGGCGGCGGCGGCGGCGGCGGCGGCGGCGGCGGCGGC (ssRNA; 39 nt)	NR1I2 (Homo sapiens, UniProt O75469)	EMSA	RNA	200 nM RNA	binding	binds
colistin	Klebsiella pneumoniae	broth microdilution	clinical isolate RKI-No_577/15		MIC	≤ 0.5 mg/L

Repeated from above:
Substance	tested on	assay	system	setting	endpoint	value
ACCAAGCGGGATGCGGAGCCGCCGCCGCCGTCG (dsDNA; blunt)	WT1 zinc finger domain 323-435 (Homo sapiens)	EMSA	double-stranded DNA, one strand shown		binding	no binding
ATACATGCAAACGTTCTTTTAAAA (dsDNA)	HY5 full length assumed (Solanum lycopersicum, UniProt Q9SM50)	EMSA	double-stranded DNA, one strand shown		binding	binds
GTGGTGTGTGGGTGTGTGTGT (dsDNA)	RAP1/Yku70/Yku80	cryo-EM	double-stranded DNA, one strand shown		binding	binds
TGGTGGATGGCGCAGTCGGCGACAA (ssDNA; 5'-amine, G-quadruplex)	TNF 77-233 (Homo sapiens, UniProt P01375)	field-effect transistor	single-stranded DNA	LOD, Hill-Langmuir fit	binding	binds
TTTTTTTTTTTTTTTTTTTTTTTTTTTTTTTTTTTTTTTTTTTTTTTTTTTTTTTTTTTTTTTTTTTTTT (ssDNA)	RAD51 full length assumed Y112E (Saccharomyces cerevisiae, UniProt P25454)	fluorescence anisotropy	single-stranded DNA	together with: ATP	binding	no binding
ACCAAGCGGGTTGCGGAGCCGCCGCCGCCGCCG (dsDNA; blunt)	WT1 zinc finger domain 323-435 (Homo sapiens)	EMSA	double-stranded DNA, one strand shown		binding	no binding
AAGGTGTGTGGGTGTGGTAATC (dsDNA)	RAP1/Yku70/Yku80	mass photometry	double-stranded DNA, one strand shown		binding	binds
AAGGTGTGTGGGTGTGGTAA (dsDNA)	RAP1/Yku70/Yku80	EMSA	double-stranded DNA, one strand shown		binding	binds
